Assay results collected from several papers.
Compare with care: the assays were run in different laboratories. ± marks the error that the study gave. Converted amounts (≈) assume the structure as drawn.

| Structure (SMILES) | organism | test | test system | setting | scale | measurement | result |
| --- | --- | --- | --- | --- | --- | --- | --- |
| O=C1Nc2ccccc2/C1=N/NC(=S)N/N=C1\C(=O)Nc2ccccc21 | Influenza A virus H3N2 | viral replication, MTS | MDCK | – | – | EC50 | 34 ± 9.5 µM |
| Cc1[nH]c(=O)c(CNC(=O)c2ccc(C(F)(F)F)o2)c2c1CCCC2 | Mycobacterium tuberculosis | microbial growth, resazurin | H37RV | – | – | MIC | 2 µg/mL (≈ 5.64 µM) |
| O=C(N/N=C1\C(=O)Nc2ccccc21)N/N=C1\C(=O)Nc2ccccc21 | Influenza A virus H3N2 | viral replication, visual CPE score | MDCK | – | – | EC50 | > 100 µM |
| C[C@@H]1N=C(c2ccccc2Cl)c2cc([N+](=O)[O-])ccc2NC1=O | Schistosoma mansoni | current clamp | adult males | 10 µM, 10 min | – | trans-surface potential | -3.6 ± 0.4 mV |
| O=C(N/N=C1\C(=O)Nc2ccc(Cl)cc21)N/N=C1\C(=O)Nc2ccc(Cl)cc21 | Influenza A virus H3N2 | viral replication, MTS | MDCK | – | – | EC50 | > 100 µM |
| Cc1c2c([nH]c(=O)c1CNC(=O)c1ccc(Br)nc1)CCCC2 | Mycobacterium tuberculosis | microbial growth, resazurin | H37RV | – | – | MIC | > 50 µg/mL |
| CCC(CC)O[C@@H]1C=C(C(=O)O)C[C@H](N)[C@H]1NC(C)=O | influenza A virus | cytopathic effect, MTS | MDCK, H1N1 | – | – | EC50 | 0.35 ± 0.2 µM |
| CNC(=O)ON=C(C)SC | Spodoptera frugiperda | insecticidal activity | larvae | topical | – | LD50 | 310 mg/kg |
| CC(=O)N[C@H]1[C@H]([C@H](O)[C@H](O)CO)OC(SCCCCCCCCCCCCSC2(C(=O)O)C[C@H](NC(=N)N)[C@@H](NC(C)=O)[C@H]([C@H](O)[C@H](O)CO)O2)(C(=O)O)C[C@@H]1NC(=N)N (stereo partly drawn) | Influenza A virus | – | H1N1 A/California/07/2009 | – | – | IC50 | 0.01 to 1 µM |
| COc1ccc(-c2ccc(C(=O)NCc3c4c(c(C)[nH]c3=O)CCCC4)cc2)cc1OC | Mycobacterium tuberculosis | microbial growth, resazurin | H37RV | 25 µg/mL | – | inhibition | 54.7% |
| CC[C@H](CO)Nc1nc(NCc2ccccc2O)c2ncn(C(C)C)c2n1 | unidentified influenza virus | viral replication, inhibitor | MDCK, H1N1 PR/8 | 24 h | – | IC50 | > 20 µM |
| CCc1cc(CC)c(CNC(=O)c2ccc(C(F)(F)F)nc2)c(=O)[nH]1 | Mycobacterium tuberculosis | microbial growth, resazurin | H37RV | – | – | MIC | 6.7 µg/mL (≈ 19 µM) |
| NC(=O)c1ncn([C@@H]2O[C@H](CO)[C@@H](O)[C@H]2O)n1 | unidentified influenza virus | viral replication, inhibitor | MDCK, H1N1 PR/8 | 24 h | – | IC50 | 10.5 µM |
| NC(=O)c1ncn([C@@H]2O[C@H](CO)[C@@H](O)[C@H]2O)n1 | coxsackievirus B3 | viral replication | – | – | – | IC50 | 222 µM |
| NC(=O)c1ncn([C@@H]2O[C@H](CO)[C@@H](O)[C@H]2O)n1 | Influenza A virus H3N2 | viral replication, visual CPE score | MDCK | – | – | EC50 | 3 ± 1 µM |
| CCOC(=O)C1=C[C@@H](OC(CC)CC)[C@H](NC(C)=O)[C@@H](N)C1 | Influenza A virus | – | – | 0.5 h | – | IC50 | 0.001 to 0.01 µM |
| COc1cc(Cc2ccc(C(=O)NCc3c4c(c(C)[nH]c3=O)CCCC4)cc2)cc(OC)c1 | Mycobacterium tuberculosis | microbial growth, resazurin | H37RV | 25 µg/mL | – | inhibition | 93.1% |
| CCC(CC)O[C@@H]1C=C(C(=O)O)C[C@H](N)[C@H]1NC(C)=O | Streptococcus pneumoniae | biofilm formation | – | – | no inhibition up to value | MBIC90 | > 50 µM |

Excerpt of the above:
| Structure (SMILES) | organism | test | test system | setting | scale | measurement | result |
| --- | --- | --- | --- | --- | --- | --- | --- |
| CNC(=O)ON=C(C)SC | Spodoptera frugiperda | insecticidal activity | larvae | topical | – | LD50 | 310 mg/kg |
| CCC(CC)O[C@@H]1C=C(C(=O)O)C[C@H](N)[C@H]1NC(C)=O | Streptococcus pneumoniae | biofilm formation | – | – | no inhibition up to value | MBIC90 | > 50 µM |
